Measurements gathered from unrelated publications.
Numbered parts are unrelated; each lists some results of a single study. Positions count from the first letter of the parent shown.

Block 1 — method: protein-binding microarray; molecule type: double-stranded DNA, one strand shown; sample: in vitro; concentration: 940 nM top; setting: 60-bp whole probe; together with: salmon DNA 0.4 mg/ml; reference: random background probes; direction: higher = stronger binding; constant ends, left off below: GCCTAGCAC … GTCTTGATTCGCTTGACGCTGCTG
Target: Interferon regulatory factor 5, full length, phosphomimetic (IRF5, Homo sapiens, UniProt Q13568-2, residues 1-514, S451D/S453D/S456D/S462D)
Oligonucleotide | fitted relative affinity [z-score]
TTAGGTATCGACACTGGGATAGTGCTA | 4.33
GACGGTTTCCTACGGCTGACGTGCTAG | 0.348
TCATTTATCCCTGACAGACTGTGCTAG | 0.859
TCAGATTTTGCTTTCATACTGTGCTAG | 0.886
ACCTAATTCACTATTACCAAGTGCTAG | 0.653
TTAGATATCGGGTTTCCATTAGTGCTA | 0.794
TTAGGTTCCAGTTTCGGTTAGTGCTAG | 9.01
TTAGATATCGGGTATCGACTAGTGCTA | 1.34
CTATGAAGTCATGTCTTCAGGTGCTAG | -0.758
GACGGTTTCGGTGCCGGGACGTGCTAG | 11.3
TTCGATCTCAGTATCGATTAGTGCTAG | 5.48
TATGTTTTTCATTTTGTTCAGTGCTAG | 1.21
TCAGGAAATGGGAAACCCACTGTGCTA | -0.0426
GACGGTATCCTTATCCTGAGGTGCTAG | 0.0964
TTTTTTTTGGAATGTCTTCCCGTGCTA | 0.594
ATGTCTTCCCCTCTCTTTCCGTGCTAG | 1.09
GACCGTTTCCTTCTCCTGACGTGCTAG | 1.39
TCAGCTACCTCTCTTAGACTGTGCTAG | 0.0929
TTAGGTAGCGACTATCGGTTAGTGCTA | 0.534
TTAGATTTCAGCCTGGATTAGTGCTAG | -0.12
TTAGAACTCAGTCTCGATTAGTGCTAG | 2.79
TTAGGACCGGACACTGGGTTAGTGCTA | -0.206
CTCTTGTTCTCTCTGGCCCTGTGCTAG | 1.52
CACGATCTCAGTTTCGAGACGTGCTAG | 3.79
CCCCATCTTGTTCCCAGAGAGTGCTAG | 0.868

Block 2 — method: RNA Bind-n-Seq; molecule type: RNA; sample: in vitro; concentration: 365 nM; reference: no-protein control; direction: higher = stronger binding
Target: RNA binding protein fox-1 homolog 2, RRM domain, GST-SBP tag (RBFOX2, Homo sapiens, UniProt O43251-10, residues 100-194)
Setting: natural RNA segment, single round, ends assumed
Constant ends, left off below: GGGAGUUCUACAGUCCGACGAUC … UGGAAUUCUCGGGUGCCAA
Construct (chain): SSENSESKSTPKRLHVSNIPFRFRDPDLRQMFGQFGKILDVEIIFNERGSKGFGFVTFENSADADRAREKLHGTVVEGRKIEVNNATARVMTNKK
Oligonucleotide | RBNS enrichment (R)
CUUCAAGCAUGACUGUUAAUGGCUCCUCUGUGACAAAACACAAGUUGGACCAAGGAGAAAGCCCUUUGGAGAAACUGGACCCUAGUUCAGUUUAGAUCUCAAAUAUAGGC | 0.441
UCAUGAGUGCCACCUGGUACAGGUAGGUGGCGCUCACGUUCCUGCCCAAAUGCAGCCCAUCGGGGAGUCACAGUCAGUCCCCCCGGCCCCCCUCCCAGUCCCUGUUGGCU | 0.231
UUGAUACGAGGGCAGUCUUAACUUGUGUUAAGGCCUGUGUGUAGCAUUGAAGGGAGGAGUUGCUUAAACCAAUGGGACUAAAACCUGAUGGGACAAUAACGCCUUUGGAG | 0.267
GUCCUUUUCAUGUAAAUUUUUGUGCAAGCACAAUCUACUUUAACUGCCUUGCCUGACCAAAUUAAAUAAAUAGUUGCCAGAUCUCUGCUUUUAUCCUGCAUGGGAUAACA | 1.05
ACCCUCAGAAAGACAUCCAAUUUUUUUAAAUCCCUGUAGCUCCAAGCCUGGUCUCAUUUGCUUCCCUGCCAGGCUCAUCGUGUGUAUACCACAUUUGUGCCCCACUGACC | 1.06
CAUAGUCAUUCCAGUGGAGAGUGGAAGUAACCUCAUGGUGAUUUUUAACCCUAAUUUCUCUCUGACCCUAAAGGAGCUGCUGGCCCUAGAAGGUUGGGAUCAAUCUUGUC | 0.342
AACUGAUUGUUUUGGAUAACUCAACAUGUUUUUCUUAAAUGCUGUUUUAGUAUUUUCUACCUCUUAAUAAGCACCAUAUUUUAGAUCUUGUAUAAAAAGUUGCCAUCUGC | 0.328
UCGUGUCCUUGCUGUCUUUUUAUUUUCCUUUUUGUUUGUUAGCAAAAACCUCUAUUUAGAUUUCAAUAAUCAGAGAAGUGUAAAAUAAAACAGAUUAUAUUGUACUUGAC | 0.647
ACAUAUCGCUGACUUCAUGGAAUGGACAUCCUGUAUAAGCACUGAAAAACAACAACACAAUAACACUAAAAUUUUAGGCACUCUUAAAUGAUCUGCCUCUAAAAGCGUUG | 0.391
GGGAGAAGCUGAAAGACCAAGACUCUUCCCAAGUUAGCUUGUCUCCUCUCCUGUCACCCUAAGAGCCACUGAGUUGUGUAGGGAUGAAGACUAUUGAAGACUCCAUUGCC | 0.89
UUGGGAAACAUGGGCAUAAUCAGGUAGUUUUGCUAAAAUUCCUCUUCCUUGGUCUACAUAAAGAAGACAUGGGUCUGUCAUAGAAUGGGGACAUUAGACUGAAAACUGGG | 2.47
CAUGUACUUCACGUUUUCUAUAUUUGUAACUUUGCAUGUAUUUUGUUUUGUCAUAUAAAAAGUUUAUAAAUGUUUGCUAUCAGACUGACAUUAAAUAGAAGCUAUGAUGA | 28.4

Block 3 — target: CEP164, C-terminal peptide (human); method: DHFR complementation, deep sequencing; sample: yeast; reference: wild type; direction: higher = weaker binding
Setting: single substitutions, model-inferred values
Starting sequence: PDZK1, PDZ domain 2 (human); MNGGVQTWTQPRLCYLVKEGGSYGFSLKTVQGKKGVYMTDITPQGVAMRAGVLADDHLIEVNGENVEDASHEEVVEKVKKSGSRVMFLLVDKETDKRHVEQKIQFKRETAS; partner HNRVKVYRF
Substitution | binding free energy change [kcal/mol]
Q104W | -0.147
D40A | 0.603
L89W | 1.47
K34V | 0.294
R97N | -0.232
E67S | 0.274
Q31H | 0.0275
V5S | -0.088
V78R | 1.95
I103K | -0.11
G20Q | 0.154
R107H | -0.077
M86Q | -0.0906
D55L | 0.914
Q101H | -0.0716
S111C | 0.0774
A69S | -0.0311
V5I | -0.0199
R107F | -0.0399
M1F | -0.00212
E64P | 0.692
A54T | 0.0173
D55P | 1.88
V61M | 1.26
E76T | 0.133

Block 4 — method: aptamer microarray, sandwich; molecule type: DNA with 2'F-ANA; sample: in vitro; concentration: 200 nM; together with: Cy3 exosite-II aptamer, 400 nM; direction: higher = stronger binding; oligonucleotide: GGTTGGTGTGGTTGG
Target: Prothrombin, mature alpha-thrombin (F2, Homo sapiens, UniProt P00734)
Setting: whole 15-mer aptamer, many near background
Modification | mean fluorescence intensity
2'F-ANA at 1 3 8 10 11 12 13 | 104 a.u.
2'F-ANA at 1 2 3 4 5 7 11 12 13 14 | 48.3 a.u.
2'F-ANA at 4 7 8 9 10 11 13 14 | 67.9 a.u.
2'F-ANA at 11 13 14 | 204 a.u.
2'F-ANA at 1 3 4 5 7 9 10 12 14 15 | 45.9 a.u.
2'F-ANA at 1 2 5 7 11 12 14 15 | 79.1 a.u.
2'F-ANA at 4 7 11 12 13 14 | 125 a.u.
2'F-ANA at 1 2 3 5 8 9 11 15 | 124 a.u.
2'F-ANA at 3 5 7 10 11 13 14 | 51.3 a.u.
2'F-ANA at 1 7 8 9 11 13 15 | 154 a.u.
2'F-ANA at 1 6 7 8 10 11 12 15 | 69.6 a.u.
2'F-ANA at 4 5 6 7 9 10 13 14 15 | 92 a.u.
2'F-ANA at 1 4 5 8 9 11 15 | 110 a.u.
2'F-ANA at 4 6 8 9 10 11 12 13 14 15 | 57.2 a.u.
2'F-ANA at 10 12 13 | 237 a.u.
2'F-ANA at 1 2 3 4 5 7 8 9 10 12 15 | 51.5 a.u.
2'F-ANA at 1 2 7 8 9 11 14 15 | 123 a.u.
2'F-ANA at 1 3 4 6 11 13 | 122 a.u.
2'F-ANA at 1 3 4 6 7 8 9 11 12 14 15 | 77.1 a.u.
2'F-ANA at 1 2 6 7 10 11 12 13 | 97.2 a.u.
2'F-ANA at 1 2 3 4 5 10 11 13 14 | 47.1 a.u.
2'F-ANA at 5 6 7 12 15 | 158 a.u.
2'F-ANA at 1 2 3 4 5 6 7 9 10 11 12 13 14 15 | 52 a.u.
2'F-ANA at 1 4 5 14 | 43.1 a.u.
2'F-ANA at 1 2 3 4 5 8 10 12 14 15 | 89.2 a.u.

Block 5 — method: protein binding microarray; molecule type: double-stranded DNA, one strand shown; sample: in vitro; concentration: not given; reference: not given; direction: higher = stronger binding
Target: Histone acetyltransferase KAT6A, winged helix 1, GST fusion (KAT6A, Homo sapiens, UniProt Q92794, residues 1-85)
Setting: 8-mer, flanks averaged, mean of 2 arrays, mostly near background
Target sequence (chain): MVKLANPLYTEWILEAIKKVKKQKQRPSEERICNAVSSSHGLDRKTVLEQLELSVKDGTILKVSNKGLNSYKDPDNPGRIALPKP
Oligonucleotide | E-score
AATGTAGT | -0.158
TGCCCCCA | -0.153
AAGGCACT | -0.226
TAAACCTA | -0.082
AACATTTG | -0.106
GGAGAACA | -0.12
ATCCGCTG | 0.0953
CAGATATC | -0.135
CGGGTGTC | 0.217
ATCGTCGC | 0.0762
ATCTGCCG | 0.276
GGCCTAAA | 0.0943
GTAGCGCA | 0.287
GCTTAGGA | -0.0443
AAACCCCC | 0.0608
ATAACGTC | -0.101
ACACAGGC | -0.252
GAGTAACC | 0.0239
GCGTTTAA | 0.115
TGCCGCAA | 0.2
CACATGCG | 0.181

For quick reference, copied from above (block 3):
Substitution | binding free energy change [kcal/mol]
V5S | -0.088
V78R | 1.95
I103K | -0.11
G20Q | 0.154
R107H | -0.077
M86Q | -0.0906
D55L | 0.914
Q101H | -0.0716
S111C | 0.0774
A69S | -0.0311
V5I | -0.0199
R107F | -0.0399
M1F | -0.00212
E64P | 0.692
A54T | 0.0173
